Measurements from different studies.
Lines come from different studies, so protocols differ.
Cell line: HEK293

SMILES | effect on | technique | concentration | time | endpoint | result
CC[C@H]1OC(=O)[C@H](C)[C@@H](OC(=O)Cc2cccc3ccccc23)[C@H](C)[C@@H](O[C@@H]2O[C@H](C)C[C@H](N(C)C)[C@H]2O)[C@](C)(OC)C[C@@H](C)C(=O)[C@H](C)[C@@H](O)[C@]1(C)O | cell growth or viability | – | – | – | CC50 | > 32 µg/mL
c1cc2nc(c1)-c1cccc(n1)CCCc1ccc(cc1)OCCCCCCOc1ccc(cc1)CCC2 | cell growth or viability | MTT | 25 µM | 24 h | viability | 84.8%
CC[C@H]1OC(=O)[C@H](C)[C@@H](OC(=O)Cc2c(F)cc([N+](=O)[O-])cc2F)[C@H](C)[C@@H](O[C@@H]2O[C@H](C)C[C@H](N(C)C)[C@H]2O)[C@](C)(OC)C[C@@H](C)C(=O)[C@H](C)[C@@H](O)[C@]1(C)O | cell growth or viability | – | – | – | CC50 | > 32 µg/mL
CN1CCCNC(=O)c2cccc(c2)C(=O)NCCCN(C)CCCNc2cccc3c2C(=O)c2cccc(c2C3=O)NCCC1 | cell growth or viability | CCK-8 | 5 µM | 48 h | viability | 12%
CC[C@H]1OC(=O)[C@H](C)[C@@H](OC(=O)c2ccc(N)cc2)[C@H](C)[C@@H](O[C@@H]2O[C@H](C)C[C@H](N(C)C)[C@H]2O)[C@](C)(OC)C[C@@H](C)C(=O)[C@H](C)[C@@H](O)[C@]1(C)O | cell growth or viability | – | – | – | CC50 | > 32 µg/mL
Cc1ccc(-n2cc(CSc3nc4ccccc4n3Cc3cn(-c4ccc(C)cc4)nn3)nn2)cc1 | – | MTT | 500 ppm | – | viability | 7.02%
N=C(N)NCCC[C@@H]1NC(=O)[C@H](CCCNC(=N)N)NC(=O)[C@@H](C(c2ccccc2)c2ccccc2)NC(=O)[C@H](Cc2c[nH]c3ccccc23)NC(=O)[C@@H](C(c2ccccc2)c2ccccc2)NC(=O)[C@@H](CCCNC(=N)N)NC(=O)[C@@H](CCCNC(=N)N)NC1=O | cell growth or viability | MTS | 100 µg/mL | 24 h | viability | > 90%
CC[C@H](C)[C@@H](C(=O)N[C@@H](Cc1ccc(O)cc1)C(=O)N1CCC[C@H]1C(=O)N[C@@H](Cc1ccccc1)C(=O)O)n1cc(C(Cc2ccc(O)cc2)NC(=O)[C@@H](NC(=O)[C@H](CCCNC(=N)N)NC(=O)[C@@H](N)CC(=O)O)C(C)C)nn1 (stereo partly drawn) | cell growth or viability | MTT | 200 µM | 24 h | viability | 67.3%
COc1c(Br)cc(CCNC2=CC3=NCCc4c[nH]c(c43)C2=O)cc1Br | cell growth or viability | MTT | – | 72 h | CC50 | 4 µM

Some of these lines once more:
SMILES | effect on | technique | concentration | time | endpoint | result
CC[C@H](C)[C@@H](C(=O)N[C@@H](Cc1ccc(O)cc1)C(=O)N1CCC[C@H]1C(=O)N[C@@H](Cc1ccccc1)C(=O)O)n1cc(C(Cc2ccc(O)cc2)NC(=O)[C@@H](NC(=O)[C@H](CCCNC(=N)N)NC(=O)[C@@H](N)CC(=O)O)C(C)C)nn1 (stereo partly drawn) | cell growth or viability | MTT | 200 µM | 24 h | viability | 67.3%
COc1c(Br)cc(CCNC2=CC3=NCCc4c[nH]c(c43)C2=O)cc1Br | cell growth or viability | MTT | – | 72 h | CC50 | 4 µM
